Experimental data of several laboratories.
A part holds a random share of what one study measured. Changes are numbered by the printed parent chain.

Sample 1 — method: RNA Bind-n-Seq; form: RNA; sample: in vitro; concentration: 365 nM; relative to: no-protein control; reading: higher = stronger binding
Target: RNA binding protein fox-1 homolog 2, RRM domain, GST-SBP tag (RBFOX2, Homo sapiens, UniProt O43251-10, residues 100-194)
Notes: natural RNA segment, single round, ends assumed
All sequences stand within: GGGAGUUCUACAGUCCGACGAUC … UGGAAUUCUCGGGUGCCAA
Residues (chain): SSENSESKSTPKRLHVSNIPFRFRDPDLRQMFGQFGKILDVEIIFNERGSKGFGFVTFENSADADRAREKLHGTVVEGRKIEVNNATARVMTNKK
For `AAGCAGGCAGGAAAGAAAAUGUCUCAUCCUUUCUUGAAAGCAUUUGCAGAAAAUAUAUCAUUUCAUUUUAUUCCCAUCUGUUUUCAAACUCGUGAUCUUAAAAGGCAUUC`, “RBNS enrichment (R)” read 0.503.
`CGUGGGGACUUUUCCUCUGGAAAAUACUUUGCCUUCAGGUAUUUGAUUGAAAUAUUUAAGAGUAUUUAAGCUUUCCAGUAUCCUGUAUCAUGUGUAAAUGGAAAAUAUGU` — result for “RBNS enrichment (R)”: 0.41.
Under “RBNS enrichment (R)”, `GGUGGCAUUGGUUAGGAAUGGGACACACGCCCCUUGUUGUGAAGUUUACAUGUGACCUUCUUAUAGGUUAACUGAGUUUGUGGCCUGGGACACAUGUAAUGAAGGUCACA` is recorded as 1.04.
`ACAUGAGAGACACCGGGAUAGAGAACGGGACCGGCACCAUGAGAAAGGAGUCUGGGUGGAAGCAAAUUGUUUUUAAUGGACUUGCAUCUCCUCACCUUGAUCAGGACUAA` — result for “RBNS enrichment (R)”: 0.572.
`AUCUCACUUGCUUGAAACAGGAGCCAGCAUGAUCUCUGGAAGCAUCAACUAUCCCUCGUCGUGAUUGUUGAAAGCUCUUUCACUGUUUUGCAUUCUAGUUUGAAUAGUUU`: “RBNS enrichment (R)” 4.94.
`ACUACUUUGCACACUUCCUCCAUGCUCUCACUUUGAAGGAAGCCUGGAUGAGGCUAGUGACUCUGUGGGUGUCCUGAACAGUGAAGUUCACUGUCUCCAUGUGAUUGUUA`: “RBNS enrichment (R)” 0.321.
Under “RBNS enrichment (R)”, `UUGUUUGUUUUUCCUGUUUGGGGGUUUUCUUUGGUUUUUUUGUUUGUUUGUUUCUGUUUUUCUGGAUUUAAAAAAAAAGAAAACCUUGCUUUUAGUGUUUGUACUGCUGC` is recorded as 14.5.
`AUCCAUGUAGGAAAGUAAAAUGGAAGGAAAUUGGGUGCAUUUCUAGGACUUUUCUAACAUAUGUCUAUAAUAUAGUGUUUAGGUUCUUUUUUUUUUCAGGAAUACAUUUG`: “RBNS enrichment (R)” 0.601.
`GUGUUUGUCACUUGUUGUGUGGUUUUAUGUUUCCCGCUGUGUGAGCAUAAACACUGUGCAGUUUUCCUGCUUGCCAGCCUGUGUGCCAUCUGUUCUCACAGCCUCUGAGA` — result for “RBNS enrichment (R)”: 0.368.
`UUUAUUUGUAUGUCAGUAUUUUUCAUUUGAUUCCCUAUUAGAAUUAAUUUUAAAACUUGAAGACUUCCAGACUUAUCCAACUUAUAAAUAACAUAUUUCUUCAGACUAAC` — result for “RBNS enrichment (R)”: 0.659.
`AAAAGAUUUUAUGUAAGAAAUGUGCUUACACUUUGUAUUUUAUUUUUAGCAGCAGCUAAAAGGCCUGUAGUUUUACUCUCUCUCUCCUCUCUCUCUCUCUCUCUCUCUCU` — result for “RBNS enrichment (R)”: 2.56.
Under “RBNS enrichment (R)”, `CGUAAAAGUAUCAAAUACUUUCUCCUUGGUAUCUCAAGGAGGUUUCUGAGAUAGGUAGAAGUCUUGAGACGGAGGCUGGCCAUCCAUUCAGCCCUGAGCGUGCUGAGUUC` is recorded as 0.396.

Sample 2 — method: aptamer microarray, sandwich; form: DNA with 2'F-ANA; sample: in vitro; concentration: 200 nM; added: Cy3 exosite-II aptamer, 400 nM; reading: higher = stronger binding; oligonucleotide: GGTTGGTGTGGTTGG
Target: Prothrombin, mature alpha-thrombin (F2, Homo sapiens, UniProt P00734)
Notes: whole 15-mer aptamer, many near background
`2'F-ANA at 2 3 6 8 11 12 15`: “mean fluorescence intensity” 890 a.u.
For `2'F-ANA at 2 3 4 5 6 7 12`, “mean fluorescence intensity” read 210 a.u.
`2'F-ANA at 1 2 3 7`: “mean fluorescence intensity” 254 a.u.
`2'F-ANA at 1 9 14 15`: “mean fluorescence intensity” 55.5 a.u.
`2'F-ANA at 2 5 6 8 9 10 11 12 13 15`: “mean fluorescence intensity” 52.2 a.u.
`2'F-ANA at 1 3 4 5 8 12 15` — result for “mean fluorescence intensity”: 156 a.u.
For `2'F-ANA at 2 3 4 8 9 10`, “mean fluorescence intensity” read 316 a.u.
`2'F-ANA at 1 3 8 9 11 12 13 14 15`: “mean fluorescence intensity” 113 a.u.
`2'F-ANA at 1 3 6 8 9 10 11 13`: “mean fluorescence intensity” 71.9 a.u.
`2'F-ANA at 4 6 8 9 11 13 15`: “mean fluorescence intensity” 153 a.u.
`2'F-ANA at 1 3 4 5 6 7 8 10 13 15`: “mean fluorescence intensity” 47.6 a.u.
For `2'F-ANA at 1 10 11 14`, “mean fluorescence intensity” read 115 a.u.
For `2'F-ANA at 1 3 5 6 7 9 11 12 13`, “mean fluorescence intensity” read 76.6 a.u.
`2'F-ANA at 4 6 8 10 12` — result for “mean fluorescence intensity”: 106 a.u.
For `2'F-ANA at 2 4 5 6 8 13 14`, “mean fluorescence intensity” read 52.5 a.u.
`2'F-ANA at 1 3 4 5 7 8 11 15`: “mean fluorescence intensity” 55.5 a.u.
`2'F-ANA at 6 7 8 9 11 12` — result for “mean fluorescence intensity”: 625 a.u.
`2'F-ANA at 1 4 6 8 9 10 11 13 15` — result for “mean fluorescence intensity”: 54.5 a.u.
For `2'F-ANA at 1 3 4 5 7 8 14`, “mean fluorescence intensity” read 82.2 a.u.
Under “mean fluorescence intensity”, `2'F-ANA at 1 2 6 8 9 10 11 13` is recorded as 45.9 a.u.
For `2'F-ANA at 1 2 4 6 13 15`, “mean fluorescence intensity” read 71.5 a.u.
For `2'F-ANA at 3 6 8 9 13 15`, “mean fluorescence intensity” read 832 a.u.
For `2'F-ANA at 1 2 4 5 7 9 11 13 15`, “mean fluorescence intensity” read 50.6 a.u.
For `2'F-ANA at 1 6 9 12 13 14`, “mean fluorescence intensity” read 76.6 a.u.

Sample 3 — method: DHFR PCA, deep sequencing; sample: yeast; added: (+)-ABA 200 µM; relative to: wild-type fitted maximum; reading: higher = stronger binding
Target: ABI1, truncated, D143A, DHFR fusion (Arabidopsis thaliana)
Notes: methotrexate growth selection, single substitutions
Parent: PYL1, truncated, DHFR fusion (Arabidopsis thaliana); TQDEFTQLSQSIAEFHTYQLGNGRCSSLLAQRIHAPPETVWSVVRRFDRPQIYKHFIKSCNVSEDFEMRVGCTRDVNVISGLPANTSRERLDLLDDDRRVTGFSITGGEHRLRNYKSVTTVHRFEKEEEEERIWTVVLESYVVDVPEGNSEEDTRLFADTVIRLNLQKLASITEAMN
For `T17S`, “relative binding score” read 98.3%.
For `R88W`, “relative binding score” read 81.1%.
Under “relative binding score”, `P146D` is recorded as 10.7%.
Under “relative binding score”, `M68Y` is recorded as 98.1%.
`L82G` — result for “relative binding score”: 52%.
For `T135F`, “relative binding score” read -3.3%.
`V62E`: “relative binding score” 25.7%.
For `F15S`, “relative binding score” read 73.3%.
`V142N` — result for “relative binding score”: 80.7%.
`Y115D`: “relative binding score” -15%.
For `M176Q`, “relative binding score” read 100%.
Under “relative binding score”, `T17N` is recorded as 88.9%.
For `T154R`, “relative binding score” read 0.452%.
`R69N`: “relative binding score” 98.5%.
Under “relative binding score”, `I133L` is recorded as 106%.
Under “relative binding score”, `G81T` is recorded as 51.8%.
`S117M` — result for “relative binding score”: 9.08%.
`R113Y`: “relative binding score” 93.5%.

Sample 4 — method: protein-binding microarray; form: double-stranded DNA, one strand shown; sample: in vitro; concentration: 250 nM; notes: 60-bp whole probe; added: salmon DNA 0.4 mg/ml; relative to: random background probes; reading: higher = stronger binding; all sequences stand within: GCCTAGCAC … GTCTTGATTCGCTTGACGCTGCTG
Target: Interferon regulatory factor 5, full length, phosphomimetic (IRF5, Homo sapiens, UniProt Q13568-2, residues 1-514, K96S/S451D/S453D/S456D/S462D)
`TAAGGTATCGGACTGGGTTAGTGCTAG` has a log fluorescence of 0.697 z-score.
The log fluorescence of `GACGAACTGAGTTTCGAGGCGTGCTAG` is reported as 3.64 z-score.
`CTCCTTTTAATTTTTAACGAGTGCTAG` gave a log fluorescence of 0.486 z-score.
`TTACGACTGGGTATCGGTTAGTGCTAG` has a log fluorescence of 4.97 z-score.
With `CTAGGTTTCGACACTGGGTTAGTGCTA` the log fluorescence was 4.91 z-score.
With `GACGGTTCCGGTTTCGGAACGTGCTAG` the log fluorescence was 5.7 z-score.
For `GACCATCTCAGTTTCGAGACGTGCTAG`, the log fluorescence was 4.92 z-score.
The log fluorescence of `TTAGATTTCGGGTTTCGATAAGTGCTA` is reported as 8.36 z-score.
`GACGATTTCAGTTCCGAGTCGTGCTAG` gave a log fluorescence of 1.82 z-score.
The log fluorescence of `TTAGAACTGAGACTAGATTAGTGCTAG` is reported as 0.135 z-score.
With `ATCATTCTCACTGCAGCCTTGTGCTAG` the log fluorescence was 0.699 z-score.
The log fluorescence of `GGCGGTTTCGGTATCGGGACGTGCTAG` is reported as 10 z-score.
`TTAGGACTGGACTCTGGGTTAGTGCTA` has a log fluorescence of -0.386 z-score.
`GACGAATTACCTCTGGAGCAGTGCTAG` gave a log fluorescence of -0.183 z-score.
With `TTAGCACTGGGGACTGGATTAGTGCTA` the log fluorescence was -0.388 z-score.
`TTAGGACTACTACTGCTTTAGTGCTAG` gave a log fluorescence of -0.114 z-score.
The log fluorescence of `TCATCTCTGTTTATGTCACTGTGCTAG` is reported as 0.844 z-score.
For `CAAGTTTGCCTCCTTCAGTCAGTGCTA`, the log fluorescence was 0.0688 z-score.
For `GACGAACTGAGACTGTAGACGTGCTAG`, the log fluorescence was -0.301 z-score.

A few entries again (sample 4):
With `GACGGTTCCGGTTTCGGAACGTGCTAG` the log fluorescence was 5.7 z-score.
`TTACGACTGGGTATCGGTTAGTGCTAG` has a log fluorescence of 4.97 z-score.
The log fluorescence of `TTAGATTTCGGGTTTCGATAAGTGCTA` is reported as 8.36 z-score.
`CTCCTTTTAATTTTTAACGAGTGCTAG` gave a log fluorescence of 0.486 z-score.
`TTAGGACTGGACTCTGGGTTAGTGCTA` has a log fluorescence of -0.386 z-score.
